Published values pooled from the literature.
Protocols differ between the studies behind these lines. In brackets after ≈: the same amount, converted by molar mass.

Structure (SMILES) | target or system | assay | test system | conditions | endpoint | result
CC[C@H](C)[C@H](NC(=O)[C@@H](NC(=O)CN)C(C)C)C(=O)N[C@@H](Cc1ccccc1)C(=O)N[C@@H](CC(N)=O)C(=O)N[C@@H](C)C(=O)N[C@@H](CC(C)C)C(=O)N[C@@H](CCCCN)C(=O)NCC(=O)N[C@H](C(=O)N[C@@H](C)C(=O)N[C@@H](CCCCN)C(=O)N[C@H](C(=O)N[C@H](C(=O)N[C@@H](C)C(=O)N[C@@H](C)C(=O)N[C@@H](CCC(N)=O)C(=O)N[C@@H](CC(C)C)C(=O)N[C@@H](CC(C)C)C(=O)N[C@@H](CCCCN)C(=O)N[C@@H](CCCCN)C(=O)N[C@@H](C)C(=O)N[C@@H](CCCNC(=N)N)C(=O)N[C@H]1CSSC[C@@H](C(=O)O)NC(=O)[C@H](CO)NC(=O)[C@H](CCCCN)NC(=O)[C@H](CC(=O)O)NC(=O)[C@H](CC(C)C)NC(=O)[C@H](CCCCN)NC1=O)C(C)C)[C@@H](C)O)C(C)C | Staphylococcus aureus |  | NCTC 10788, Mueller-Hinton broth | added: KCl 4.5 mM | MIC | 2 µM
CCCCCCCCC(=O)NCc1ccc(O)c(OC)c1 | mAb 2-LD2 | antibody binding, indirect competitive ELISA |  | added: coating antigen hapten 1-OVA | IC50 | 0.0065 µg/mL (≈ 0.0222 µM)
CC[C@H](C)[C@H](NC(=O)[C@H](CO)NC(=O)[C@H](CO)NC(=O)[C@H](Cc1ccccc1)NC(=O)CN)C(=O)N[C@@H](Cc1ccccc1)C(=O)N[C@@H](CCCNC(=N)N)C(=O)NCC(=O)N[C@H](C(=O)N[C@@H](C)C(=O)N[C@@H](CCCCN)C(N)=O)C(C)C | Escherichia coli |  | ATCC 8739 | 10% FBS | MIC | > 128 µM
CN[C@](C)(C[18F])C(=O)O | MDA-MB-468 tumour model |  | host not given, heart | 15 min, tumour-bearing | tracer uptake | 3.3 %ID/g
[O-][N+]1=C(c2ccc(Cl)cc2)C2=NCCCN2c2ccccc21 | Fusobacterium nucleatum | microbial growth | ATCC25586 |  | MIC | 0.25 µg/mL
CC(C)C[C@@H]1NC(=O)[C@H](C)NC(=O)[C@H](NC(=O)[C@H](CO)NC(=O)[C@@H](CCCCN)NC(=O)[C@@H](CC(C)C)NC(=O)[C@H](C)N)[C@H](C(N)=O)OC(=O)[C@H](CC(C)C)NC1=O | Bacillus subtilis Bacillus subtilis |  | ATCC 6051 | tested as TFA salt | MIC | 2 to 4 µg/mL
c1ccc(CCNC2CCCc3c2[nH]c2ccc(C4CCCCC4)cc32)cc1 (stereo not drawn) | Staphylococcus aureus | broth microdilution | SG511, cation-adjusted MHB |  | MIC | 2 µg/mL
C[N+]1=C2C(c3ccc([N+](=O)[O-])cc3)=[N+]([O-])c3ccccc3N2CCC1 | Fusobacterium nucleatum | microbial growth | ATCC25586 |  | MIC | 0.25 µg/mL
CN[C@@H]1[C@H](O)[C@H](NC)[C@H]2O[C@]3(O)[C@H](O[C@@H]2[C@H]1O)O[C@H](C)C[C@@]3(O)CNCc1ccccc1 | Listeria monocytogenes |  |  |  | MIC | 25 µg/mL
[O-][N+]1=C(Cc2ccccc2)C2=NCCCN2c2ccccc21 | Bacteroides ovatus |  | ATCC 84834 |  | MIC | 4 µg/mL
COC1C=COC2(C)Oc3c(C)c(O)c4c(c3C2=O)C2=NC3(CCN(CC(C)C)CC3)NC2=C(NC(=O)C(C)=CC=CC(C)C(O)C(C)C(O)C(C)C(OC(=O)Nc2cscn2)C1C)C4=O (stereo not drawn) | Mycobacteroides abscessus |  | ATCC 19977 arr knockout |  | MIC | 0.021 µM
Cc1cc(C)c(SCC2OC(OC3C(N)CC(N)C(OC4OC(CN)C(O)CC4N)C3O)C(O)C(N)C2O)c(C)c1 (stereo not drawn) | Listeria monocytogenes |  | ATCC 19115 |  | MIC | 37.5 µg/mL
